Published values pooled from the literature.
Parts stem from different laboratories: compare values within a part only.
UniProt Q9NRH2, sequence (whole entry, looked up): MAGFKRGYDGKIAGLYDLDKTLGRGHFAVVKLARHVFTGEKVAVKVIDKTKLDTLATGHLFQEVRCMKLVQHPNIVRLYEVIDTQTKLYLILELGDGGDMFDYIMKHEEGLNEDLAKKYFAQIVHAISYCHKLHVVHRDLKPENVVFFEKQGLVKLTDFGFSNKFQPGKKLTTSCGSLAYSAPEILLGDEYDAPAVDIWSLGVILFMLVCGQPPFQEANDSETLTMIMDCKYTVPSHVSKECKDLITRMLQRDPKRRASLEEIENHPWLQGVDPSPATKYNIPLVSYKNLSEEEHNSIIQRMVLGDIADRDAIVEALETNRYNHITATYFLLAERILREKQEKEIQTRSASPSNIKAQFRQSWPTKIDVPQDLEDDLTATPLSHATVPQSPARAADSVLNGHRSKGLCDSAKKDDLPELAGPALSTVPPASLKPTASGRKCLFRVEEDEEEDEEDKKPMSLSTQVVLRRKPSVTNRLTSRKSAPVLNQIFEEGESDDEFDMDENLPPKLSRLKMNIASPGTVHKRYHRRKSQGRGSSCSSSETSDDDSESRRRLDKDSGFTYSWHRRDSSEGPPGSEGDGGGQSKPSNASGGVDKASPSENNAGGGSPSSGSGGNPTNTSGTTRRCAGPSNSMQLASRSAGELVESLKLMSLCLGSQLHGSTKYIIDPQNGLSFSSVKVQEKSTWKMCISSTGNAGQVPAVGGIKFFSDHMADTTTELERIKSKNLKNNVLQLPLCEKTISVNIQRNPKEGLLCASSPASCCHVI
UniProt Q00535, sequence (whole entry, looked up): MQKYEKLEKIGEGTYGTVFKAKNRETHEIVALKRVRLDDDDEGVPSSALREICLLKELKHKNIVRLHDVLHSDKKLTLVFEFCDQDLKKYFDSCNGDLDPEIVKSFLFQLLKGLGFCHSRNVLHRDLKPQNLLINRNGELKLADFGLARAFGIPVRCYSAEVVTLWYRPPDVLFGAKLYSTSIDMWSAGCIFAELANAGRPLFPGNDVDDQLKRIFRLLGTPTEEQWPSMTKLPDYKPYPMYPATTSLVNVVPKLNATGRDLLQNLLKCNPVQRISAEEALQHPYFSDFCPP
UniProt P30939, sequence (whole entry, looked up): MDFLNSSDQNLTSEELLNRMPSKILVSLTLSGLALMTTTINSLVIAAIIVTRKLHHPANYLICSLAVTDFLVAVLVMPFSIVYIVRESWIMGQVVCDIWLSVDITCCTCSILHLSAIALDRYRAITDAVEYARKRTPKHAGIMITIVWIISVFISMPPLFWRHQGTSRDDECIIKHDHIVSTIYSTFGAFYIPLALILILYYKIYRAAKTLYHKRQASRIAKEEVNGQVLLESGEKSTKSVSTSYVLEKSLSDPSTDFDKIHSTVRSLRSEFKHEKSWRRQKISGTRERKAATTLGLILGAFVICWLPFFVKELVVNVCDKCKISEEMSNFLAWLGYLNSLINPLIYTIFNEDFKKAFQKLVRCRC
UniProt P48729, sequence (whole entry, looked up): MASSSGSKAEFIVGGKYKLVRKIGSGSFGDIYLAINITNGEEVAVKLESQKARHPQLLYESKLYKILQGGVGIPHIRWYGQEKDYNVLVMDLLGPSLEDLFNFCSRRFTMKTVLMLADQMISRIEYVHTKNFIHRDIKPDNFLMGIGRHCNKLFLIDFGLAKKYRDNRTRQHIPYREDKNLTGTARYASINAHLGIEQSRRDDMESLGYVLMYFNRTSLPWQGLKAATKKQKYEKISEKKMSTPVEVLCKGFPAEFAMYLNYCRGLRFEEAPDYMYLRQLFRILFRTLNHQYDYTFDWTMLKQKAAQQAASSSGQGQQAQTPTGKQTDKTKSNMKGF
UniProt P42338, sequence (whole entry, looked up): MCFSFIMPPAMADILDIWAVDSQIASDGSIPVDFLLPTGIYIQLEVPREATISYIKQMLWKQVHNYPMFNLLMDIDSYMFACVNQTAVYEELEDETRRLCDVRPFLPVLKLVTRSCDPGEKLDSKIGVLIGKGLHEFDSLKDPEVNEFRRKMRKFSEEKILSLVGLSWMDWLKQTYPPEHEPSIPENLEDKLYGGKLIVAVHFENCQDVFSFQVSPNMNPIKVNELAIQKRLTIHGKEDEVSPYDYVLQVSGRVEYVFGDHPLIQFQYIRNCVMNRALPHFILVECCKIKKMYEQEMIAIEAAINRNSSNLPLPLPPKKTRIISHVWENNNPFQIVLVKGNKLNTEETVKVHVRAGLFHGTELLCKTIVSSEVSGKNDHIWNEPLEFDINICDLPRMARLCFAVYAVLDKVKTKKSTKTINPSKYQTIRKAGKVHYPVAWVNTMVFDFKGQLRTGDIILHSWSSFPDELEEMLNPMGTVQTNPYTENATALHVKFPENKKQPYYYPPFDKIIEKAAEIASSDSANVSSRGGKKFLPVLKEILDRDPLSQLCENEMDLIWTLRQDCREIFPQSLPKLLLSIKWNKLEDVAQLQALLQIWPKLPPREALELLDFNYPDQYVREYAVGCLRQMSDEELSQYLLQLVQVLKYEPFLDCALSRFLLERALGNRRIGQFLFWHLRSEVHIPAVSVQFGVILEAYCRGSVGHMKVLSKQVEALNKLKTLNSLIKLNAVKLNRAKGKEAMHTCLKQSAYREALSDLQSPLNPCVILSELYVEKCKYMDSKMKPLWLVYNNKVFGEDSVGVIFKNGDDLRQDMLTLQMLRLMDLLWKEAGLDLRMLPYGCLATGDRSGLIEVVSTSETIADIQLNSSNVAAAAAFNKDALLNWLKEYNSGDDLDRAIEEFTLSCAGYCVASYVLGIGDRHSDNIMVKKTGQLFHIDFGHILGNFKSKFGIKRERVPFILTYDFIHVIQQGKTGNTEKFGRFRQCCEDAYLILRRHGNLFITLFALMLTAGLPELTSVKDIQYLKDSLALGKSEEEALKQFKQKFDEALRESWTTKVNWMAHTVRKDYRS
UniProt O00329, sequence (whole entry, looked up): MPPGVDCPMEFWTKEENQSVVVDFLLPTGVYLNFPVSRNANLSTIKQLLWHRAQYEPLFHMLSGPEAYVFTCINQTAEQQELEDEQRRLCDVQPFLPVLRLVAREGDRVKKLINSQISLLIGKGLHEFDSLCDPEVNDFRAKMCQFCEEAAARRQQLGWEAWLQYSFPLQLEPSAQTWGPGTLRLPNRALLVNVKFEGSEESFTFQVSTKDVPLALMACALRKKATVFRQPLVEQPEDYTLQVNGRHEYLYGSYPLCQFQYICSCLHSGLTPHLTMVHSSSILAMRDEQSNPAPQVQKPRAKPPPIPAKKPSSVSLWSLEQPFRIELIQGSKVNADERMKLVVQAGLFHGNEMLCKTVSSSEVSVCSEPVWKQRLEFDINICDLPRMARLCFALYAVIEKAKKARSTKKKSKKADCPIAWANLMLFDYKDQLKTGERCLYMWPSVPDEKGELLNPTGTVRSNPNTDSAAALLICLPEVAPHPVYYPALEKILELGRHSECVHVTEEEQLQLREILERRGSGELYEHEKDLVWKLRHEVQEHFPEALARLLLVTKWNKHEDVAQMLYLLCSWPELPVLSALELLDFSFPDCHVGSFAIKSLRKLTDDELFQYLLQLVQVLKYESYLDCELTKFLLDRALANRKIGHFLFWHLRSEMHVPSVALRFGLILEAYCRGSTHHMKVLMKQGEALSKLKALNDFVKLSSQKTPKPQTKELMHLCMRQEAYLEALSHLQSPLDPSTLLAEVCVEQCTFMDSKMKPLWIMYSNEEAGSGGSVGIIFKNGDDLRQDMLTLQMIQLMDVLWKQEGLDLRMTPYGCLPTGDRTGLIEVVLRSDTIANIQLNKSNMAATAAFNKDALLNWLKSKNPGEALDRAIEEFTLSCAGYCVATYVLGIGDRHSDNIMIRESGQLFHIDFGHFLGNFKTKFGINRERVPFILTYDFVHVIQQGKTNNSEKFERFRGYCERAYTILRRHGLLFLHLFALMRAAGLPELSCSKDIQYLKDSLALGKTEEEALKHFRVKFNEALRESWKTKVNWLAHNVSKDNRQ
UniProt Q9C098, sequence (whole entry, looked up): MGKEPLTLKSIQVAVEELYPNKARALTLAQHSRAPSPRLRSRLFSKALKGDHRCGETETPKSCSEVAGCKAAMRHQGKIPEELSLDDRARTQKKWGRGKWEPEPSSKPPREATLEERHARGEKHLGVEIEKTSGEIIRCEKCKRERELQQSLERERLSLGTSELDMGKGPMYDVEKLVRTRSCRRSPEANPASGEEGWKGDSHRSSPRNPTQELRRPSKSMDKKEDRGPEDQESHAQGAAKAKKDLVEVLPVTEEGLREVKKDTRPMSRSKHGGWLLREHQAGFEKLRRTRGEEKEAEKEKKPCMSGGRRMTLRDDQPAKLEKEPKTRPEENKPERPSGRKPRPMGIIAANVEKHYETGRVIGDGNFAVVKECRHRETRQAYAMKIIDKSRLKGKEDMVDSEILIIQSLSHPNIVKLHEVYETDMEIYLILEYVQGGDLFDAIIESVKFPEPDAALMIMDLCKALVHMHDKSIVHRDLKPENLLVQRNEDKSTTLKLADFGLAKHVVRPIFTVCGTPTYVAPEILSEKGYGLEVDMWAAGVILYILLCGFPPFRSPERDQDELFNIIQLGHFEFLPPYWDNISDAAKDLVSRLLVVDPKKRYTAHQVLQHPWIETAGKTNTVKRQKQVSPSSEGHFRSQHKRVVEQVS
UniProt Q13188, sequence (whole entry, looked up): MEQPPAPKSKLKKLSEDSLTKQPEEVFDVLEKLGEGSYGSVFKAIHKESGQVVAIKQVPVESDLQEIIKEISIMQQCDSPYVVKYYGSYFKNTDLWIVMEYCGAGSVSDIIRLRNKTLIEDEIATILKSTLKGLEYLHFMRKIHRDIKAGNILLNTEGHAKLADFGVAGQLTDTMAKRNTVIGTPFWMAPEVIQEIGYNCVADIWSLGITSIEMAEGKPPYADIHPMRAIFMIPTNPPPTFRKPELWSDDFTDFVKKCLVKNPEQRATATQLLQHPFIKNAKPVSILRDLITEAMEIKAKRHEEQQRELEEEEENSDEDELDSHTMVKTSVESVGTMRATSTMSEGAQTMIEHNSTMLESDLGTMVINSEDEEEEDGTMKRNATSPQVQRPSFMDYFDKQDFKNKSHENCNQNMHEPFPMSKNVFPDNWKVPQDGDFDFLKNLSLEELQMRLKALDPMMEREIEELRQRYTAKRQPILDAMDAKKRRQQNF

Set 1 — method: competition with immobilised ligand; tested at: 1 µM
SMILES: Cc1nc(Cc2cccc(C(F)(F)F)c2)sc1-c1ccc(C(N)=O)nc1
| target | test | remaining binding |
| --- | --- | --- |
| EGFR (Homo sapiens, UniProt P00533, L861Q) | cell-free assay | 100% |
| SRPK3 (Homo sapiens, UniProt Q9UPE1) | cell-free assay | 100% |
| Tyrosine-protein kinase ABL1, non-phosphorylated (ABL1, Homo sapiens, UniProt P00519, T315I) | cell-free assay | 100% |
| KIT (Homo sapiens, UniProt P10721, A829P) | cell-free assay | 96% |
| DCLK3 (Homo sapiens, UniProt Q9C098) | cell-free assay | 100% |
| CSNK1A1 (Homo sapiens, UniProt P48729) | cell-free assay | 99% |
| PIK3CD (Homo sapiens, UniProt O00329) | cell-free assay | 100% |
| Ribosomal protein S6 kinase alpha-2, C-terminal kinase domain (RPS6KA2, Homo sapiens, UniProt Q15349) | cell-free assay | 100% |
| PAK2 (Homo sapiens, UniProt Q13177) | cell-free assay | 60% |
| CDC42BPB (Homo sapiens, UniProt Q9Y5S2) | binding | 39% |
| TNK1 (Homo sapiens, UniProt Q13470) | cell-free assay | 85% |
| STK3 (Homo sapiens, UniProt Q13188) | cell-free assay | 97% |
| CDK5 (Homo sapiens, UniProt Q00535) | cell-free assay | 100% |
| MATK (Homo sapiens, UniProt P42679) | cell-free assay | 100% |
| Ribosomal protein S6 kinase alpha-5, C-terminal kinase domain (RPS6KA5, Homo sapiens, UniProt O75582) | cell-free assay | 100% |
| STK17B (Homo sapiens, UniProt O94768) | cell-free assay | 79% |
| CILK1 (Homo sapiens, UniProt Q9UPZ9) | binding | 100% |
| DYRK1A (Homo sapiens, UniProt Q13627) | cell-free assay | 67% |
| PIK3CB (Homo sapiens, UniProt P42338) | cell-free assay | 83% |
| SNRK (Homo sapiens, UniProt Q9NRH2) | cell-free assay | 84% |
| Tyrosine-protein kinase ABL1, phosphorylated (ABL1, Homo sapiens, UniProt P00519, M351T) | cell-free assay | 100% |
| ERBB3 (Homo sapiens, UniProt P21860) | cell-free assay | 100% |
| FLT3 (Homo sapiens, UniProt P36888, R834Q) | cell-free assay | 92% |
| HIPK1 (Homo sapiens, UniProt Q86Z02) | cell-free assay | 92% |
| PRKACA (Homo sapiens, UniProt P17612) | cell-free assay | 75% |

Set 2 — organism: Sarcocystis neurona; effect on: parasite growth; tested at: 10 µM
| SMILES | inhibition [%] |
| --- | --- |
| CC(=O)OCC(=O)[C@@]1(O)CC[C@H]2[C@@H]3CCC4=CC(=O)CC[C@]4(C)[C@H]3C(=O)C[C@@]21C | 5.1 |
| COCCCOc1ccnc(C[S+]([O-])c2nc3ccccc3[nH]2)c1C (stereo not drawn) | -36.4 |
| CC(C)OC(=O)CCC/C=C\C[C@@H]1[C@@H](CC[C@@H](O)CCc2ccccc2)[C@H](O)C[C@@H]1O | -19.8 |
| CCCc1nc2c(C)cc(-c3nc4ccccc4n3C)cc2n1Cc1ccc(-c2ccccc2C(=O)O)cc1 | 10 |

Set 3 — SMILES: NC(N)=NC(=O)c1nc(Cl)c(N2CCCCCC2)nc1N; effect on: β-arrestin recruitment; action: agonist; method: PRESTO-Tango; tested at: 10 µM; relative to: untreated
| target | fold over basal |
| --- | --- |
| CCR6 (Homo sapiens, UniProt P51684) | 0.96 |
| HTR1F (Homo sapiens, UniProt P30939) | 0.65 |
| Oxytocin receptor (OXTR, Homo sapiens, UniProt P30559) | 1.08 |

Set 4 — method: PRP chromatography estimate; sample: 1,9-decadiene/PBS; pH: 7.4
| SMILES | logD |
| --- | --- |
| CC(C)C[C@@H]1NC(=O)[C@H](CC(C)C)NC(=O)[C@@H](CC(C)C)NC(=O)[C@H](C(C)C)NC(=O)[C@H](C)NC(=O)[C@H](Cc2cscn2)NC(=O)[C@H](CCC(=O)N2CCCC2)NC1=O | -1.91 |
| CC(C)C[C@@H]1NC(=O)[C@H](CC(C)C)NC(=O)[C@@H](CC(C)C)NC(=O)[C@H](CC(C)C)NC(=O)[C@@H](Cc2cscn2)NC(=O)[C@H](C)NC(=O)[C@H](CCC(=O)N2CCCC2)NC1=O | -1.43 |
| CC(C)C[C@@H]1NC(=O)[C@H](CC(C)C)NC(=O)[C@@H](CC(C)C)NC(=O)[C@@H](CC(C)C)NC(=O)[C@H](C(C)C)NC(=O)[C@H](CC(C)C)NC(=O)[C@@H](CC(C)C)NC1=O | 2.3 |
| CCOC(=O)[C@@H]1CSCC(=O)N[C@H](CC)C(=O)N(C)[C@@H](C)C(=O)N[C@@H](CC(C)C)C(=O)N2CCC[C@@H]2C(=O)N(CC)CC(=O)N[C@H](CC(C)C)C(=O)N(C)[C@H](C)C(=O)N[C@@H](CC(C)C)C(=O)N1C | -0.373 |

Set 5 — species: mouse; sample: microsomes or S9; tested at: 2 µM; time: 0.5 h
| SMILES | remaining compound [%] |
| --- | --- |
| O=S(=O)(NC1CCCC12CCOCC2)c1cccc2ccoc12 (stereo not drawn) | 7.27 |
| Cc1ncc2c(c1-c1nn[nH]n1)-c1ccccc1CC2 | 83.3 |
| COCCCNC(=O)C1CCCN(S(=O)(=O)c2ccccc2)CCC(=O)NCC1 (stereo not drawn) | 76.6 |
| CN1C[C@H](NC(=O)CC2=C(c3ccccc3)CCC2=O)C[C@H]1C(=O)O | 94.3 |
| CCC(Oc1ccccc1)C(=O)Nc1cccc2c1CCCC2 (stereo not drawn) | 0.536 |

Set 6 — cell line: mouse MPNST tumor cells; method: high-content immunofluorescence imaging; refers to: nuclear SOX9; tested at: 10 µM; time: 12 h; notes: mean of 2 replicates; relative to: DMSO control; reading: higher = more nuclear SOX9
| SMILES | nuclear SOX9 intensity |
| --- | --- |
| O=C(Nc1ccncc1)c1cc([N+](=O)[O-])ccc1Cl | 104 % of DMSO |
| CC[C@H]1OC(=O)[C@H](C)[C@@H](O[C@H]2C[C@@](C)(OC)[C@@H](O)[C@H](C)O2)[C@H](C)[C@@H](O[C@@H]2O[C@H](C)C[C@H](N(C)C)[C@H]2O)[C@](C)(OC)C[C@@H](C)C(=O)[C@H](C)[C@@H](O)[C@]1(C)O | 97.8 % of DMSO |
| O=C1NCCCc2c1oc1ccc(O)cc21 | 78.7 % of DMSO |

Set 7 — cell line: HaCaT; tested at: 100 µM; time: 60 h
| Compound | viability [%] |
| --- | --- |
| Cn1c(=O)c2c(ncn2CC(O)CO)n(C)c1=O (stereo not drawn) | 116 |
| O=c1cc(-c2ccc(O)cc2)oc2cc(O)cc(O)c12 | 19.6 |
| CN1[C@@H]2CCC[C@H]1C[C@@H](NC(=O)c1nn(C)c3ccccc13)C2 | 143 |
| COc1cc(C(=O)NC2CCCNC2)cc(OC)c1OC (stereo not drawn) | 134 |

Set 8 — action: inhibitor; tested at: 10 µM; relative to: control
Target: Diamine acetyltransferase 1 (Homo sapiens, UniProt P21673)
Construct (P21673 1-171): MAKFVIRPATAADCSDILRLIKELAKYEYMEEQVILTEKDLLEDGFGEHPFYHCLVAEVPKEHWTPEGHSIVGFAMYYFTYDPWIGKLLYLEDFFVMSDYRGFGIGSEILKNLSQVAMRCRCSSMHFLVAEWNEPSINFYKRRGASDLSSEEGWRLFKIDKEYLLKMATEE
| SMILES | remaining activity [%] |
| --- | --- |
| C[C@@H]1O[C@@H](O[C@H]2[C@H](OC(=O)[C@]34CCC(C)(C)C[C@H]3C3=CC[C@@H]5[C@@]6(C)C[C@H](O)[C@H](O[C@@H]7O[C@H](CO)[C@@H](O)[C@H](O)[C@H]7O)C(CO)(CO)[C@@H]6CC[C@@]5(C)[C@]3(C)C[C@H]4O)OC[C@H](O)[C@@H]2O)[C@H](O)[C@H](O)[C@H]1O[C@@H]1OC[C@@H](O)[C@H](O)[C@H]1O | 119 |
| COc1ccc(/C=C/C(=O)O)cc1 | 82.3 |
| O=c1ccc2cc3ccoc3cc2o1 | 78.9 |
